# Measurements collected from several papers.
SMILES,host,matrix,route,dose,notes,endpoint,value
C/C(N)=N/C(=N\S(=O)(=O)c1ccc(C(F)(F)F)cc1)N1C[C@H](c2ccccc2)C(c2ccc(Cl)cc2)=N1,male C57BL/6 mouse,kidney,intravenous,10 mg/kg,,AUC(0-inf),64900 ng·h/mL
COc1cnc2cccc(N3CCc4c(cc(Cn5ccnc5)cc4-c4cn(C)nc4C(F)(F)F)C3=O)c2c1,male CD-1 mouse,plasma,oral,50 mg/kg,,AUC(0-t),50500 ng·h/mL
Cn1ccc(-c2cc(Cl)c(Cl)c3[nH]c4c(c23)CN(C(=O)CO)CC4)n1,C57BL/6 mouse,blood,oral,20 mg/kg,,AUC(0-inf),110 µM·h
Cn1c2cc([S+](C)[O-])sc2c2cnn(Cc3cccc(N)c3)c(=O)c21 (stereo not drawn),male BALB/c mouse,plasma,intravenous,1 mg/kg,single dose,AUC(0-inf),976 ng·h/mL
CCn1cc(-c2cc(Cn3ccnc3)cc3c2CCN([C@H](c2cc(OC)ccn2)C2CC2)C3=O)c(C(F)(F)F)n1,male CD-1 mouse,plasma,oral,10 mg/kg,,AUC(0-t),3600 ng·h/mL
COC1C=COC2(C)Oc3c(C)c(O)c4c(c3C2=O)C2=NC3(CCN(CC(C)C)CC3)NC2=C(NC(=O)C(C)=CC=CC(C)C(O)C(C)C(O)C(C)C(OC(=O)Nc2cccnn2)C1C)C4=O (stereo not drawn),female CD-1 mouse,plasma,intravenous,5 mg/kg,,AUC,36800 ng·h/mL
O=C(OC(C(F)(F)F)C(F)(F)F)N1CCC(CNS(=O)(=O)c2ccc(Cl)cc2)CC1,male SCID mouse,plasma,oral,30 mg/kg,,AUC(0-t),15500 ng·h/mL
Cc1cc(NC(=O)[C@H](O)c2cc(F)cc(F)c2)ccc1-c1cnc(N)c(C(=O)NC(C)C)c1,female nude mouse,plasma,oral,10 mg/kg,single dose,AUC(0-t),5260 ng·h/mL
CN[C@H](CC(C)C)C(=O)N[C@H]1C(=O)N[C@@H](CC(N)=O)C(=O)N[C@H]2C(=O)N[C@H]3C(=O)N[C@H](C(=O)N[C@H](C(=O)N[C@H](CCCNC(=N)N)C(N)=O)c4cc(O)cc(O)c4-c4cc3ccc4O)[C@H](O)c3ccc(c(Cl)c3)Oc3cc2cc(c3O[C@@H]2O[C@H](CO)[C@@H](O)[C@H](O)[C@H]2O[C@H]2C[C@](C)(N)[C@H](O)[C@H](C)O2)Oc2ccc(cc2Cl)[C@H]1O,female CD-1 mouse,plasma,intravenous,10 mg/kg,single dose,AUC,17200 ng·h/mL

# A few entries again:
SMILES,host,matrix,route,dose,notes,endpoint,value
COC1C=COC2(C)Oc3c(C)c(O)c4c(c3C2=O)C2=NC3(CCN(CC(C)C)CC3)NC2=C(NC(=O)C(C)=CC=CC(C)C(O)C(C)C(O)C(C)C(OC(=O)Nc2cccnn2)C1C)C4=O (stereo not drawn),female CD-1 mouse,plasma,intravenous,5 mg/kg,,AUC,36800 ng·h/mL
